# Experimental data collected from several papers.
# Protocols differ between the studies behind these lines. ± gives the spread as reported.
# DRD3: D(3) dopamine receptor (DRD3, Homo sapiens, UniProt P35462)
# Sequence of UniProt P35462 (whole entry, looked up): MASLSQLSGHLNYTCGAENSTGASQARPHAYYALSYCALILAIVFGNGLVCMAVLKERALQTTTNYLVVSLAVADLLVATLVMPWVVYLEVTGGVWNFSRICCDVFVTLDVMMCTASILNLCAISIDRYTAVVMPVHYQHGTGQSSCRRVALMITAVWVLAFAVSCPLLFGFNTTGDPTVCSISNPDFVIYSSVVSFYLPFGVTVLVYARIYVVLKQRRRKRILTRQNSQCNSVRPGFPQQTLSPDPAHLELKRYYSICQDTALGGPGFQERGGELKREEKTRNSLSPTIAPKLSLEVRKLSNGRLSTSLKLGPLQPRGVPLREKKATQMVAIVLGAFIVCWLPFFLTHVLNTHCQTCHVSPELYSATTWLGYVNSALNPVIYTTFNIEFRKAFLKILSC
# CDK2 with cyclin A: Cyclin-dependent kinase 2, with cyclin A (CDK2, Homo sapiens, UniProt P24941)
# ESR1: Estrogen receptor (ESR1, Homo sapiens, UniProt P03372)
# Sequence of UniProt P03372 (whole entry, looked up): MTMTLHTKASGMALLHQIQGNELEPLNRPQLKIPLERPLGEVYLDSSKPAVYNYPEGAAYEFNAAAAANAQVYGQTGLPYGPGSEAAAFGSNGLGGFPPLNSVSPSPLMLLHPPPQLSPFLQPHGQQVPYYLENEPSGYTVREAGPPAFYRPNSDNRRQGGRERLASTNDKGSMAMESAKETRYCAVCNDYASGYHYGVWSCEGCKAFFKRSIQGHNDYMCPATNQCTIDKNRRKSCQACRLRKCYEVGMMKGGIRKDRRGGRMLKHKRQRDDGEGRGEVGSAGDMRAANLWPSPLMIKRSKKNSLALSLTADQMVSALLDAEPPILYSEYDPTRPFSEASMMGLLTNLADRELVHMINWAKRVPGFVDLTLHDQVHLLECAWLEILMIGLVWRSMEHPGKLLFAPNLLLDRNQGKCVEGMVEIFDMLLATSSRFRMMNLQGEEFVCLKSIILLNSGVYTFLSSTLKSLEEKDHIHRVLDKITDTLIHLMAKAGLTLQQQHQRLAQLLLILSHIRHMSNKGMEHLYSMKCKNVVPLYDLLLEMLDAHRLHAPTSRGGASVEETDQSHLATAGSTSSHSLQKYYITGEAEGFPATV
# CDK2: Cyclin-dependent kinase 2 (CDK2, Homo sapiens, UniProt P24941)
# SLC10A1: Hepatic sodium/bile acid cotransporter (SLC10A1, Homo sapiens, UniProt Q14973)
# Sequence of UniProt Q14973 (whole entry, looked up): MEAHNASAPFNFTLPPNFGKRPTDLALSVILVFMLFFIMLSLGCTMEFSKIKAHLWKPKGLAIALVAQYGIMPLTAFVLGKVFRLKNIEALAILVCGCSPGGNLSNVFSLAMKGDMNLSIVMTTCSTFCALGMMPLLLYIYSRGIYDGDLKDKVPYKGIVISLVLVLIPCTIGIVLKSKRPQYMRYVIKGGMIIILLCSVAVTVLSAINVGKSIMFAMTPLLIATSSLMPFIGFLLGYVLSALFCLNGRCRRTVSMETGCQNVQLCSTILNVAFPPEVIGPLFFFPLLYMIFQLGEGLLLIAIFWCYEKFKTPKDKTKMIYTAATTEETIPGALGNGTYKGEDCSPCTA
SMILES,target or system,assay,test system,setting,scale,endpoint,result
Cc1[nH]c(C)c(S(=O)(=O)Nc2ccc(C(F)(F)F)c(Cl)c2)c1C(=O)N1C2CCC1CC2,DRD3,"β-arrestin recruitment, antagonist, PathHunter",,added: dopamine EC80,,IC50,> 100 µM
COc1cc(NC(=O)CSc2nncn2C)cc(OC)c1OC,CDK2 with cyclin A,,,,,Kd,> 100 µM
O=C(/C=C/c1ccc(O)cc1)c1c(O)cc(O)cc1O,ESR1,"array formation, agonist",ERα-GFP PRL-HeLa,1 h,,EC50,2.05 µM
COc1cc(OC)c(NC(=O)CSc2nnc(-c3ccncc3)n2C)cc1Cl,CDK2,binding,,,,Kd,> 100 µM
CC[C@H](C)C(=O)O[C@H]1C[C@@H](C)C=C2C=C[C@H](C)[C@H](CC[C@@H]3C[C@@H](O)CC(=O)O3)[C@H]21,SLC10A1,"taurocholate uptake, inhibitor",NTCP-expressing HEK293,added: 10 µM taurocholate,,Ki,202 ± 32 µM
COc1cc(OC)c(NC(=O)CSc2nnc(-c3ccncc3)n2-c2ccccc2)cc1Cl,CDK2 with cyclin A,,,,,Kd,> 100 µM
COc1ccc(/C=C/C(=O)c2c(O)cc(OC)cc2OC)cc1,ESR1,"array formation, agonist",ERα-GFP PRL-HeLa,1 h,,EC50,6.2 µM
COc1cc(-c2nnc(SCC(N)=O)n2C)cc(OC)c1OC,CDK2 with cyclin A,,,,,Kd,> 100 µM
CC(=O)c1ccc(NS(=O)(=O)c2c(C)[nH]c(C)c2C(=O)N2CCC(F)(F)C2)cc1Cl,DRD3,"β-arrestin recruitment, antagonist, PathHunter",,added: dopamine EC80,,IC50,> 100 µM
Cc1c(NC(=O)C2CCCN2S(=O)(=O)c2ccccc2)c(=O)n(-c2ccccc2)n1C (stereo not drawn),CDK2,binding,,,,Kd,> 100 µM
Cc1ccc(CNS(=O)(=O)c2c(C)[nH]c(C)c2C(=O)N2CCCC2)cc1Cl,DRD3,"Go activation, antagonist, BRET",,added: dopamine,,IC50,> 100 µM
COC(=O)c1ccccc1NC(=O)CSc1nnc(-c2ccc(OC)cc2)n1C,CDK2 with cyclin A,,,,,Kd,> 100 µM
Cc1[nH]c(C)c(S(=O)(=O)Nc2ccc(C(F)(F)F)c(Cl)c2)c1C(=O)N1CCN(C(=O)OC(C)(C)C)CC1,DRD3,"β-arrestin recruitment, antagonist, PathHunter",,added: dopamine EC80,,IC50,> 100 µM
Cn1cc(-c2ccc(-c3cncc(Cl)c3N3CCC4(CCNC4=O)CC3)cc2)cn1,COLO 205,"microarray, item: FSCN1",,"concentration not given, 6 h, gene set Fascin",reference: untreated cells,fold change in expression,2.2
O=c1cc(-c2ccc(O)cc2)oc2cccc(O)c12,ESR1,"array formation, agonist",ERα-GFP PRL-HeLa,1 h,,EC50,0.122 µM
COC(=O)C1=C(C)NC(C)=C(C(=O)OC(C)C)C1c1cccc2nonc12 (stereo not drawn),SLC10A1,"taurocholate uptake, inhibitor",NTCP-expressing HEK293,added: 10 µM taurocholate,,Ki,99.5 ± 14 µM
Cc1[nH]c(C)c(S(=O)(=O)Nc2ccc(C3(C)CCO3)c(Cl)c2)c1C(=O)N1CCC(F)(F)C1 (stereo not drawn),DRD3,"β-arrestin recruitment, antagonist, PathHunter",,added: dopamine EC80,,IC50,> 100 µM
COc1ccc(CC2c3cc(OC)c(OC)cc3CC[N+]2(C)CCC(=O)OCCCCCOC(=O)CC[N+]2(C)CCc3cc(OC)c(OC)cc3C2Cc2ccc(OC)c(OC)c2)cc1OC (stereo not drawn),SLC10A1,"taurocholate uptake, inhibitor",NTCP-expressing HEK293,added: 10 µM taurocholate,,Ki,176 ± 94 µM
COc1cc(O)c2c(=O)cc(-c3ccc(O)c(O)c3)oc2c1,ESR1,"array formation, agonist",ERα-GFP PRL-HeLa,1 h,,EC50,0.934 µM
Cc1[nH]c(C)c(S(=O)(=O)Nc2c(Cl)cc(C(F)(F)F)cc2Cl)c1C(=O)N1CCC(F)(F)C1,DRD3,"β-arrestin recruitment, antagonist, PathHunter",,added: dopamine EC80,,IC50,> 100 µM
CCCC1O[C@@H]2C[C@H]3[C@@H]4CCC5=CC(=O)C=C[C@]5(C)[C@H]4[C@@H](O)C[C@]3(C)[C@]2(C(=O)CO)O1 (stereo partly drawn),SLC10A1,"taurocholate uptake, inhibitor",NTCP-expressing HEK293,added: 10 µM taurocholate,,Ki,264 ± 94 µM

# A few entries again:
SMILES,target or system,assay,test system,setting,scale,endpoint,result
Cn1cc(-c2ccc(-c3cncc(Cl)c3N3CCC4(CCNC4=O)CC3)cc2)cn1,COLO 205,"microarray, item: FSCN1",,"concentration not given, 6 h, gene set Fascin",reference: untreated cells,fold change in expression,2.2
